Results from different studies.
A part holds a random share of what one study measured. “And” joins repeats or separate records; there may be more than shown.
Sequence of UniProt O15197 (whole entry, looked up): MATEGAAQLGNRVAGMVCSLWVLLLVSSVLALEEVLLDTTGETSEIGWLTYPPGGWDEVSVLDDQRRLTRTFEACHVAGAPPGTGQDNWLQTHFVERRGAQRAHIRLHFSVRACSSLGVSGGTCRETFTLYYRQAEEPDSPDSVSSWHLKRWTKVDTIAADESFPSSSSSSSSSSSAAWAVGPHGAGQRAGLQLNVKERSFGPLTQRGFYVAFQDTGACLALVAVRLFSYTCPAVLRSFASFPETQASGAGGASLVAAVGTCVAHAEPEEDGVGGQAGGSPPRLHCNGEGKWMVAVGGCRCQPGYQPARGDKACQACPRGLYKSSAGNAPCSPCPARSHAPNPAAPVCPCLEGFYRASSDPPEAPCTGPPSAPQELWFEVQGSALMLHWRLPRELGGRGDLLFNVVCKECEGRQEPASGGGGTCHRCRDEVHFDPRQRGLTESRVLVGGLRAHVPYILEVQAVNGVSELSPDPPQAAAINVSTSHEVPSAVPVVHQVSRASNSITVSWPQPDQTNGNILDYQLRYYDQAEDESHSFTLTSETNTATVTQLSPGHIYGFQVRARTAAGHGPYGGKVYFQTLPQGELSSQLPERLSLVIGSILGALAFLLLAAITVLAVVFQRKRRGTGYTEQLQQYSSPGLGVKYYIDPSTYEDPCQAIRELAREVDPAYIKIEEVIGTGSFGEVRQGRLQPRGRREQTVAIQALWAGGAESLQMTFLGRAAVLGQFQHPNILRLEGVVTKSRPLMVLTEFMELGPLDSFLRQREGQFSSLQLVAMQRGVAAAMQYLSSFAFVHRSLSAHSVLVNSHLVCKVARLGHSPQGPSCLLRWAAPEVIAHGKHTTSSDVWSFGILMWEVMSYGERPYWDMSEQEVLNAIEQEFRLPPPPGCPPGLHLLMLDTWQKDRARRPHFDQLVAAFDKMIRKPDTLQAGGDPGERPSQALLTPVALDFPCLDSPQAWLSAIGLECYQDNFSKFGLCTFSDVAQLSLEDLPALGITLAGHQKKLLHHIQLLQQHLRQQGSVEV
Sequence of UniProt P11802 (whole entry, looked up): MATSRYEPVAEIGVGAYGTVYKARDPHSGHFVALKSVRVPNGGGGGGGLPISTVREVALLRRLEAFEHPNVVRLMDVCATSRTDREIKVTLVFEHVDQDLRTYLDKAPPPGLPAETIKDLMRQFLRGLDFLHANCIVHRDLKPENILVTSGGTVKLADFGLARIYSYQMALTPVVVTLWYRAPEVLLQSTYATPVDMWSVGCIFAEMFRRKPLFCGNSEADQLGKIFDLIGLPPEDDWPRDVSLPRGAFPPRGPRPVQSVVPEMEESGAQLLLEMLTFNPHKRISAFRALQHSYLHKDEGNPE
Sequence of UniProt O95819 (whole entry, looked up): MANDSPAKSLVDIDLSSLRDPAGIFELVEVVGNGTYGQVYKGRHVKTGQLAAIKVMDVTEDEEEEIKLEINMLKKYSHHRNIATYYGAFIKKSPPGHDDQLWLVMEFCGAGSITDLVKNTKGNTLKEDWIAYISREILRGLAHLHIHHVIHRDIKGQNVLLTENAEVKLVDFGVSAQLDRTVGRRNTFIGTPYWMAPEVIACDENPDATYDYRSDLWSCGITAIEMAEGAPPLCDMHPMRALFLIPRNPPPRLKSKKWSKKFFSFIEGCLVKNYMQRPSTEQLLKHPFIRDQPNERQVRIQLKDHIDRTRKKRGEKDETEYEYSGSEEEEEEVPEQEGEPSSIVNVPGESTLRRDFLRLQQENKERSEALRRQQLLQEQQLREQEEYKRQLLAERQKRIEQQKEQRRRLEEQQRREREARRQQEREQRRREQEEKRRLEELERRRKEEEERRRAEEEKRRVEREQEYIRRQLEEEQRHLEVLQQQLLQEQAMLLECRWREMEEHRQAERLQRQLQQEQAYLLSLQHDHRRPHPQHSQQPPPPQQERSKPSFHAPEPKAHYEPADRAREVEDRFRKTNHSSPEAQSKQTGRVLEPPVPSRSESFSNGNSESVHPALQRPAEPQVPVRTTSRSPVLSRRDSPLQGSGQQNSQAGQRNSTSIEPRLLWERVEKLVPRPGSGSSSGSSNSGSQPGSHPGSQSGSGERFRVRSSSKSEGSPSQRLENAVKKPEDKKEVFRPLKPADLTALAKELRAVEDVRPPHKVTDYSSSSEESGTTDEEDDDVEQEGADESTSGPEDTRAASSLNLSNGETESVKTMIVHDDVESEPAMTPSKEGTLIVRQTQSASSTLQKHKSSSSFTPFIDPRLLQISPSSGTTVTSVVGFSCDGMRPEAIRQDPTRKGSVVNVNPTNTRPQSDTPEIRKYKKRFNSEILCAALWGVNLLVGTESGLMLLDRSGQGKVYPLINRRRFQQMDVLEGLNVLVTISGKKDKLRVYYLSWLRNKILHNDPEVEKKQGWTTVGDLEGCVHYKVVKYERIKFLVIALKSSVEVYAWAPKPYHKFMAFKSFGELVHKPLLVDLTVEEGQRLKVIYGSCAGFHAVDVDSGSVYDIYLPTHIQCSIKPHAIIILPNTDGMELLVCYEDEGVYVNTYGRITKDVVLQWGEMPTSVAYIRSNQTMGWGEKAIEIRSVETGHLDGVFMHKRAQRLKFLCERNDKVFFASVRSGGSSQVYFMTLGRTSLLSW
Sequence of UniProt Q13233 (whole entry, looked up): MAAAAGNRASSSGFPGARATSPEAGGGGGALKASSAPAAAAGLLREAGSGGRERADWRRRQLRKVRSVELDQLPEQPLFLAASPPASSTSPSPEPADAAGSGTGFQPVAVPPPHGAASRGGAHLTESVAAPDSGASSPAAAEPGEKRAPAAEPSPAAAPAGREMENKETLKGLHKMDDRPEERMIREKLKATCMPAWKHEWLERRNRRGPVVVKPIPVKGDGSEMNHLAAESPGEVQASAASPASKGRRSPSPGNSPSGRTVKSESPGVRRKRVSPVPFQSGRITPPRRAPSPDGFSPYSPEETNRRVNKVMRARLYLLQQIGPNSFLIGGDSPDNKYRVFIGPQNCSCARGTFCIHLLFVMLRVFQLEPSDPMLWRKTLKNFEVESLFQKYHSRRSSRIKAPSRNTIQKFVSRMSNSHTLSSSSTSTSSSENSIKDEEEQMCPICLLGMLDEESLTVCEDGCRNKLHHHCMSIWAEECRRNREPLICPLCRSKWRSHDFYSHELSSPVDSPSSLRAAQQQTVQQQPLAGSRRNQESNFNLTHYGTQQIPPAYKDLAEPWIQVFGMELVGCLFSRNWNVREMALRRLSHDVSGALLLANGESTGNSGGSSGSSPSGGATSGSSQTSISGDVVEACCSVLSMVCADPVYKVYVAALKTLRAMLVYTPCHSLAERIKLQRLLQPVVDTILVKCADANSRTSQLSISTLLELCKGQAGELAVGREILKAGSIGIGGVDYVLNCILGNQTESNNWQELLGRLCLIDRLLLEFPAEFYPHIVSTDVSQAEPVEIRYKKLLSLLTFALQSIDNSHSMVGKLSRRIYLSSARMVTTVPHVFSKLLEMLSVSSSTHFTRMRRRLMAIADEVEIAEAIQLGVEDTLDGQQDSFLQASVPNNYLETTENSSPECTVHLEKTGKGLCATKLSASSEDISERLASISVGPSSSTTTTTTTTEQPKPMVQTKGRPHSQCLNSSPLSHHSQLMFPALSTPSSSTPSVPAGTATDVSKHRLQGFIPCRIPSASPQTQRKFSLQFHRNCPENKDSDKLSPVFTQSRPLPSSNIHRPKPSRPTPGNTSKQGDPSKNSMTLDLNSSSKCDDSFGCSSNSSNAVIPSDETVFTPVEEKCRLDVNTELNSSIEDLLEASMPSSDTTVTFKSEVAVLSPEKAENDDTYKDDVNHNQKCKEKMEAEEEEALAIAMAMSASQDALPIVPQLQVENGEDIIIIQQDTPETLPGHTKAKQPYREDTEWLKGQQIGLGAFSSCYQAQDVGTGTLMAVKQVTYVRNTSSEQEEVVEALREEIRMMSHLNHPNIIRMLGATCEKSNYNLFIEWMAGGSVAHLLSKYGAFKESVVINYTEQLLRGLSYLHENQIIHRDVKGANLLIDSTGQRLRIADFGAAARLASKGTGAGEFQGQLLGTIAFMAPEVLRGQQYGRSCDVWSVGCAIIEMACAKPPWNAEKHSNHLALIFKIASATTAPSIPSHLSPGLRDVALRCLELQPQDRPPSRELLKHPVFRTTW
Sequence of UniProt Q05512 (whole entry, looked up): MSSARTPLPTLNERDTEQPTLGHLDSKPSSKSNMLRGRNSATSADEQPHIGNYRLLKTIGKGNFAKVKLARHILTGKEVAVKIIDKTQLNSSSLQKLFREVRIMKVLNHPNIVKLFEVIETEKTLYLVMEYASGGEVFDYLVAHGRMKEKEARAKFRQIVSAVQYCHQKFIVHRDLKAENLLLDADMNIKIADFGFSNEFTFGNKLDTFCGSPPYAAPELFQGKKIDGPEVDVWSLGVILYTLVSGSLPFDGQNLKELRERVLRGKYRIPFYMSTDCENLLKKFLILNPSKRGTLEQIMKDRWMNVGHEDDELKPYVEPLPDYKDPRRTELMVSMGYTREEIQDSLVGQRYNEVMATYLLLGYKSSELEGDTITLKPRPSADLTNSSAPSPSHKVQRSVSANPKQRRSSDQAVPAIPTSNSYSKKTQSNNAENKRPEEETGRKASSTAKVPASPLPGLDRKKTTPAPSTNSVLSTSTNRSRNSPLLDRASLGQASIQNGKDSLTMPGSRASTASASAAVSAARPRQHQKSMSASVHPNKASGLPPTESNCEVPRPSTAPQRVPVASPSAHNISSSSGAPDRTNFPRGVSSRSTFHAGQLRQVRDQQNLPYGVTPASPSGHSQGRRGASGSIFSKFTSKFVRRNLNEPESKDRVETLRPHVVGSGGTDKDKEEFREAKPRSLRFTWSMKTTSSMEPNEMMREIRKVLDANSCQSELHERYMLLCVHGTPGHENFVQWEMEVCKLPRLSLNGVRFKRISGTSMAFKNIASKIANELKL

Sample 1 — tested at: 10 µM
SMILES: Cc1sc(C(=O)NC2COC2)cc1-n1cc(NC(=O)Nc2c(F)cccc2Cl)cn1
target	assay	how to read	remaining activity [%]
CDC42BPG (Homo sapiens, UniProt Q6DT37)	enzyme activity	reference: untreated control	101
RPS6KA2 (Homo sapiens, UniProt Q15349)	kinase activity, kinase panel profiling	–	100
RAF1 (Homo sapiens, UniProt P04049)	enzyme activity	reference: untreated control	85.5
STK32B (Homo sapiens, UniProt Q9NY57)	enzyme activity	reference: untreated control	81.7
CAMK2B (Homo sapiens, UniProt Q13554)	enzyme activity	reference: untreated control	99.8
EPHA1 (Homo sapiens, UniProt P21709)	enzyme activity	reference: untreated control	86.4
DYRK1B (Homo sapiens, UniProt Q9Y463)	enzyme activity	reference: untreated control	104
RPS6KB2 (Homo sapiens, UniProt Q9UBS0)	enzyme activity	reference: untreated control	97.4
MAP3K1 (Homo sapiens, UniProt Q13233)	enzyme activity	reference: untreated control	91.7

Sample 2 — tested at: 1 µM
Compound: CCS(=O)(=O)c1cc2cc(C[C@](O)(CC(C)(C)c3ccc(F)cc3C(N)=O)C(F)(F)F)[nH]c2cn1
target	assay	remaining binding
LYN (Homo sapiens, UniProt P07948)	cell-free assay, competition with immobilised ligand	100%
SRC (Homo sapiens, UniProt P12931)	cell-free assay, competition with immobilised ligand	100%
TGFBR2 (Homo sapiens, UniProt P37173)	cell-free assay, competition with immobilised ligand	100%
FYN (Homo sapiens, UniProt P06241)	cell-free assay, competition with immobilised ligand	77%
Tyrosine-protein kinase ABL1, phosphorylated (ABL1, Homo sapiens, UniProt P00519)	cell-free assay, competition with immobilised ligand	100%
CAMK1 (Homo sapiens, UniProt Q14012)	cell-free assay, competition with immobilised ligand	86%
STK4 (Homo sapiens, UniProt Q13043)	cell-free assay, competition with immobilised ligand	100%
EPHA2 (Homo sapiens, UniProt P29317)	cell-free assay, competition with immobilised ligand	81%
TNK1 (Homo sapiens, UniProt Q13470)	cell-free assay, competition with immobilised ligand	98%
MAP4K4 (Homo sapiens, UniProt O95819)	cell-free assay, competition with immobilised ligand	92%
CLK1 (Homo sapiens, UniProt P49759)	cell-free assay, competition with immobilised ligand	99%
PIK3CA (Homo sapiens, UniProt P42336, C420R)	cell-free assay, competition with immobilised ligand	95%
EPHB6 (Homo sapiens, UniProt O15197)	cell-free assay, competition with immobilised ligand	100%
DDR1 (Homo sapiens, UniProt Q08345)	cell-free assay, competition with immobilised ligand	94%
AAK1 (Homo sapiens, UniProt Q2M2I8)	binding	100%
DYRK1A (Homo sapiens, UniProt Q13627)	cell-free assay, competition with immobilised ligand	100%
Cyclin-dependent kinase 4, with cyclin D1 (CDK4, Homo sapiens, UniProt P11802)	cell-free assay, competition with immobilised ligand	96%

Sample 3
Structure (SMILES): COc1cc(C(=O)N2CCC(N3CCN(C)CC3)CC2)ccc1Nc1ncc2c(n1)N(C)c1ccccc1C(=O)N2C
tested on	assay	system	conditions	inhibition [%]
YANK1/YANK2/YANK3 (mouse)	probe labelling, inhibitor, KiNativ ActivX ADP probe	mouse brain lysate	0.1 µM, Lys1 site peptide	-4.5
mouse CaMK2β and CaMK2δ	probe labelling, KiNativ ATP probe	mouse brain lysate	0.1 µM, LYS1 site	-4
YSK1 mouse	KiNativ profiling	mouse brain lysate	1 µM, LYS1 site, with: ADP acyl phosphate probe	-2.1
ZAP70 (human)	probe labelling, KiNativ, measured: activation loop peptide	PBMC lysate (human)	1 µM, with: ADP acyl-phosphate probe	-13.5
mouse PKACα	probe labelling, KiNativ ADP probe	mouse brain lysate	0.1 µM, LYS1 site	-19.7
NDR2 (mouse)	probe labelling, KiNativ ADP probe	mouse brain lysate	0.1 µM, LYS1 labelled site	0.3
human PBMC	probe labeling, inhibitor, KiNativ profiling, measured: VKELPTLkDMDFLNK	cell lysate	concentration not given, ATP site, with: ATP acyl-phosphate probe 1 µM	4.6
ABL and ARG (mouse)	probe labelling, KiNativ, measured: Lys1 site peptide	brain tissue lysate (mouse)	0.1 µM, with: ADP acyl-phosphate probe	27
Serine/threonine-protein kinase MARK2 (Mark2, Mus musculus, UniProt Q05512)	KiNativ profiling	mouse brain lysate	1 µM, LYS1 site, with: ATP acyl phosphate probe	7.7
Dual specificity mitogen-activated protein kinase kinase 7 (Map2k7, Mus musculus, UniProt Q8CE90)	probe labelling, KiNativ, measured: DVkPSNILLDER peptide, Lys2 site	brain tissue lysate (mouse)	1 µM, with: ADP acyl-phosphate probe	-6
mouse NEK9	probe labelling, KiNativ ATP probe	mouse brain lysate	1 µM, activation loop LGDYGLAkK	11.1
SLK mouse	KiNativ profiling	mouse brain lysate	1 µM, LYS1 site, with: ATP acyl phosphate probe	-20.3

Sample 4 — cell line: mouse MPNST tumor cells; technique: high-content immunofluorescence imaging; measured: nuclear SOX9; tested at: 10 µM; time: 12 h; notes: mean of 2 replicates; reference: DMSO control; reading: higher = more nuclear SOX9
SMILES	nuclear SOX9 intensity
CCN1CCN(c2cc3c(cc2F)c(=O)c(C(=O)O)cn3C2CC2)CC1	105 % of DMSO and 99.9 % of DMSO
CC(=O)NCCc1c(Cc2ccccc2)[nH]c2ccccc12	95.8 % of DMSO
CCC(C)n1ncn(-c2ccc(N3CCN(c4ccc(OCC5COC(Cn6cncn6)(c6ccc(Cl)cc6Cl)O5)cc4)CC3)cc2)c1=O (stereo not drawn)	135 % of DMSO
Nc1ccc(-c2cnc(N)c(-c3ccc(Cl)cc3)c2)cn1	119 % of DMSO
Cc1cc(C(C)(C)C)cc(C)c1CC1=NCCN1	109 % of DMSO
O=S(=O)(Cc1ccccc1)Nc1ccc(-c2ccc3c(cnn3-c3ccc(F)cc3)c2)c(C(F)(F)F)c1	87.7 % of DMSO
C[C@H](NC[C@H](O)CP(=O)(O)Cc1ccccc1)c1ccc(Cl)c(Cl)c1	95.8 % of DMSO
O=c1[nH]c2ccc(-c3c(Cl)cccc3OC(F)(F)F)cc2[nH]1	132 % of DMSO
CC1(C)CCC(C)(C)c2cc(NC(=O)c3ccc(C(=O)O)cc3)ccc21	110 % of DMSO
CCCCNNC(=O)c1ccc(Br)cc1	133 % of DMSO

A few entries again (sample 2):
target	assay	remaining binding
DDR1 (Homo sapiens, UniProt Q08345)	cell-free assay, competition with immobilised ligand	94%
AAK1 (Homo sapiens, UniProt Q2M2I8)	binding	100%
DYRK1A (Homo sapiens, UniProt Q13627)	cell-free assay, competition with immobilised ligand	100%
